Measurements from different studies.
Each line is one published result; not all experiments were run side by side. “And” joins repeats or separate records; there may be more than shown.

| Compound | tested on | test | test system | conditions | scale | endpoint | value |
| --- | --- | --- | --- | --- | --- | --- | --- |
| CC(C)NCC(O)c1ccc(O)c(O)c1 (stereo not drawn) | – | – | ventricular cardiomyocytes, C57BL/6 mouse | dose not given, 0.64 s | – | sarcomere length | 1.72 µm |
| NCCCC[C@H](N[C@@H](CCc1ccccc1)C(=O)O)C(=O)N1CCC[C@H]1C(=O)O | Nedd8-cullin1 interaction | neddylation, AlphaScreen | – | 100 µM | – | inhibition | 9.9% |
| CN1CCN(c2ccc(-c3ccc4nncc(Nc5ncccn5)c4c3)cc2)CC1 | Schistosoma mansoni | – | adult worms | 10 µM, 48 h | direction not given | phenotypic severity score | 0 |
| CC1=C(Cc2cn(CCN3CCNCC3)nn2)C(=O)c2ccccc2C1=O | Schistosoma mansoni | – | adult worms | 10 µM, 24 h | – | killing | 34.2% |
| CN(C)c1ccc(O)c2c1C[C@H]1C[C@H]3[C@H](N(C)C)C(O)=C(C(N)=O)C(=O)[C@@]3(O)C(O)=C1C2=O | Brugia malayi | – | SCID mouse | x28d dosing, 6 weeks post-treatment | – | mice with adult worms | 60% |
| CC1=C(Cc2cn(CCN3CCOCC3)nn2)C(=O)c2ccccc2C1=O | Schistosoma mansoni | – | adult worms | 25 µM, 48 h | – | killing | 43.5% |
| COc1ccc(-n2nc(C(N)=O)c3c2C(=O)N(c2ccc(N4CCCCC4=O)cc2)CC3)cc1 | Nedd8-cullin1 interaction | neddylation, AlphaScreen | – | 100 µM | – | inhibition | 26.9% |
| Nc1nc(-c2ccccc2)nc2[nH]nc(Nc3ccc(C(F)(F)F)cc3)c12 | coxsackievirus B3 | – | 31-1-93, NMRI mice, CVB3 chronic myocarditis | oral, 100 mg/kg twice daily, day 24, dosed days 0 to 6, score scale 0 to 7 | direction not given | clinical score | 0 |
| CC1=C(Cn2cc(COC3COC3)nn2)C(=O)c2ccccc2C1=O | Schistosoma mansoni | – | adult worms | 10 µM, 48 h | – | killing | 47.9% |
| COc1ccc(Nc2cnnc3ccc(-c4cnc(N5CCCN(C)CC5)nc4)cc23)cc1Cl | Schistosoma mansoni | – | adult worms | 10 µM, 1 h | direction not given | phenotypic severity score | 1 |
| CC1=C(Cn2cc([Si](C)(C)C)nn2)C(=O)c2ccccc2C1=O | Schistosoma mansoni | – | adult worms | 10 µM, 24 h | – | killing | 39.4% |
| CN1CCN(c2ncc(-c3ccc4c(Nc5ncccn5)cnnc4c3)cn2)CC1 | Schistosoma mansoni | – | adult worms | 10 µM, 5 h | direction not given | phenotypic severity score | 0 |
| C[C@H]1c2cccc(O)c2C(=O)C2=C(O)[C@]3(O)C(=O)C(C(N)=O)=C(O)[C@@H](N(C)C)[C@@H]3[C@@H](O)[C@@H]21 | Brugia malayi | – | SCID mouse, peritoneal cavity | dose not given, 6 weeks post-treatment, dosing x42d | – | median microfilaria count | 0 microfilariae per mouse |
| CC(C)n1ncc2c(C(=O)NCC3(C)CNC3)cc(C3CC3)nc21 | Enterovirus D68 | cytopathic effect | RD, US/IL/14-18952 | 50 nM | – | cell protection | -1.08% and -1.22% |
| COc1ccc(Nc2cnnc3cc(-c4cnc(N5CCCN(C)CC5)nc4)ccc23)cc1Cl | Schistosoma mansoni | – | adult worms | 10 µM, 48 h | direction not given | phenotypic severity score | 0 |

Excerpt of the above:
| Compound | tested on | test | test system | conditions | scale | endpoint | value |
| --- | --- | --- | --- | --- | --- | --- | --- |
| Nc1nc(-c2ccccc2)nc2[nH]nc(Nc3ccc(C(F)(F)F)cc3)c12 | coxsackievirus B3 | – | 31-1-93, NMRI mice, CVB3 chronic myocarditis | oral, 100 mg/kg twice daily, day 24, dosed days 0 to 6, score scale 0 to 7 | direction not given | clinical score | 0 |
